Experimental data gathered from unrelated publications.
Parts stem from different laboratories: compare values within a part only.

Set 1 — technique: RNA Bind-n-Seq; molecule type: RNA; matrix: in vitro; concentration: 100 nM; reference: input RNA pool; reading: higher = stronger binding
Target: RING finger protein unkempt homolog, zinc fingers 1-6, SBP tag (UNK, Homo sapiens, UniProt Q9C0B0, residues 30-357)
UniProt Q9C0B0, sequence (30-357, looked up): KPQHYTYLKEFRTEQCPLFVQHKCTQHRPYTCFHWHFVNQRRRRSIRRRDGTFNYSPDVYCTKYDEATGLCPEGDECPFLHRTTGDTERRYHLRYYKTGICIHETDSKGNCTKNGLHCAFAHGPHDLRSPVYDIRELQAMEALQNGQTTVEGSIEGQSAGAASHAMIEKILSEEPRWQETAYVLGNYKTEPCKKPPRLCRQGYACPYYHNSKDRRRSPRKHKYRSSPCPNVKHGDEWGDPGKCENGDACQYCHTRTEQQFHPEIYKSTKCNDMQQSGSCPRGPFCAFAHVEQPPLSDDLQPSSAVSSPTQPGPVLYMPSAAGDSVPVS
Notes: RNA with constant flanks, vertebrate orthologous sites, ends assumed
Oligonucleotide | bound/input enrichment [ratio]
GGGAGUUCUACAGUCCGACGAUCGGUGGUGGGGCCCAGGCCCUGCCACUCAGGGGCCUGCUGGCCACCUCAGCCAGGCUGUUUUAGUUCUGUAAUUUUUUAACAGUGCCCUUACUUCCUGAACAUGAGUCUGAGAUUUGAAAACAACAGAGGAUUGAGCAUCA | 0.412
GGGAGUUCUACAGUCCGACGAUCCCUACAAUAAUGAAAACCUAUAGAAAUUUUUUAAUUUUUCAUUUUCCCCUUAGGCAUACAUAGUCUUUUUCCCCCCAGGCAGAUCAUUCUGAGUGUGCGAGUGUGUGUGCACAUGUUACGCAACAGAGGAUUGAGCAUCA | 2.15
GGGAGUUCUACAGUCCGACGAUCAGUAGUUUUAAGCUUGUUUGCACAGUUCUUUUUUUCCAUUGGAAAUGGAAUUCAUUGCCUUAGGUCUUUUUAAAUAGUGUAUUAUCGUUGGGGCUGGCUCUAUGCUUGAAAACCAGUUUACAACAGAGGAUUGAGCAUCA | 2.9
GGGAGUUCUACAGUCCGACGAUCUUCAUUACCUGAGCCGAGUGGAGGUGACAGAGUUUGAAGACAUCAAGUCAGGCUACAGAAUAGAUUUUGUAAGUGUUUAUGGUGUCACGUAACACUUUGGUGACCUAUUUUUAUUUUUUACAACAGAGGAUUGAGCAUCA | 0.581
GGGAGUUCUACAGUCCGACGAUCCCCCAGCACGCUGAUAAAGACCGUGGAUUGGCUGCUUGUGUUUUCCUUAUUCUUUUUAAUUAGCUUUAUUAUGUAUGCUACCAUCCGGACUGAGAGCAUUCGCUGGCUGAUUCCAGGACACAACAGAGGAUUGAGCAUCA | 1.31
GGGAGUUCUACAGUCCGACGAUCCCUGAAGCUUUGUGUUUGGCUGCACUGCGUAAGCUGCUACAAAUAGAAUAAAGAAUUUCAUAGCCCGAAUCUGCCAUUUAGAUGCAUGGAAAACGGGCUCUGCACAGUGGGUUUGGAGCUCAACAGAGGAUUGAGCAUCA | 0.559
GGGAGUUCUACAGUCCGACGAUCCACAUCUGGUGAUAUUUGGCCUGGCCUCUCAGCUUAUGAUAAUAGUCCUAGAUCACCUCAUAGUCCUUCACCGAUUGCUACACCACCUAGUCAGAGUUCAUCUUGCUCUGAUGCCCCCAUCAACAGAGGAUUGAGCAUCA | 0.93
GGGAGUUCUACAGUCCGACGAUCCCAGUAUGUGUGUGCAUUAGUCACAUUCCUCUCUGUUCUGUUGAAGGAAAAAGAGACAUUUUAACCCUUUUAAGGUUGACUUUAUUUUAUGUUAUUUGGUUGCAUGAAGUUGCCCUUAAUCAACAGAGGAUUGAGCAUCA | 0.343
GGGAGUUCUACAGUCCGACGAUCUUCACUUCCAGGUUGGGCCUAGUGGAAAAGUCAUAGGAAUUGACCACAUUAAAGAGCUAGUAGACGACUCAGUAAAUAAUGUCAGAAAGGAUGAUCCAAUGCUUUUGUCUUCAGGGAGAGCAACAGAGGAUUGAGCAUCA | 0.666
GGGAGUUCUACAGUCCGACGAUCCUCACUUCCAGGUUGGAUCUAGUGGAAAAGUCAUAGGAAUUGACCACAUUAAAGAGCUAGUAGAUGACUCAAUAAAUAAUGUCAGAAAGGACGAUCCAAUGCUUUUGUCUUCAGGGAGAGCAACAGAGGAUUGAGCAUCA | 0.621
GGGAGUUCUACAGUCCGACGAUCGUGCUCGCCUUAGAGCAGUUCCCCCACCCACCCACCCCUUUUUUCCCUUGAUUUUGGUUUCAGGGCUGGGUGGGUGUGGCACACACUCUGAGGCCAGAGCUGUUUGGUUCGCCUUGUGCUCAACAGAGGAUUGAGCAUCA | 0.183

Set 2 — technique: RNA Bind-n-Seq; molecule type: RNA; matrix: in vitro; concentration: 365 nM; reference: no-protein control; reading: higher = stronger binding
Target: RNA binding protein fox-1 homolog 2, RRM domain, GST-SBP tag (RBFOX2, Homo sapiens, UniProt O43251-10, residues 100-194)
Notes: natural RNA segment, single round, ends assumed
Residues (chain): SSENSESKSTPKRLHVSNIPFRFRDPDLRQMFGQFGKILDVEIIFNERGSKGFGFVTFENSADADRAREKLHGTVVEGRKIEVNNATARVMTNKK
Oligonucleotide | RBNS enrichment (R)
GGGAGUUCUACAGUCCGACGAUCCAUUCUUGUGUAUUUAAUAACAAAGGUGGCCCUCUUCAUGUCUGCUCCUCCCUACAGGCACUGUCUGUCUUCACAGGGCUUGGUCUUUCUGCUGCCACUUGUGAAAACCGUGGAAUUCUCGGGUGCCAA | 0.268
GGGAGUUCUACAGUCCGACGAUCAAUCCCAAGUCGAAAUCACCUCUUGUUUUAAACAAGAAUGAAUCAUUACUGUGUAUGUUAGGGUAUUAAAACUGUUUCACCAGUACAGUGAAAGUUGUUUCAACAUUUUAUGGAAUUCUCGGGUGCCAA | 0.403
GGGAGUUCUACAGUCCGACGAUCGGGGUUUUUGUUUGAUUGAUUGUUUGUUUUUGGUAACUUUACAUCAAAUACACAUUUUAUGCUAGAAAAAGUGUACUUAAUAGGAAUUAUUUUUGUUUUCCUAAAGAAAAUGGAAUUCUCGGGUGCCAA | 9.09
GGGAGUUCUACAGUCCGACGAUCGUCUUAAAACAAUACAUGUAUUUAAAAUAAUGCAGUCAUAACCUAAUUAAUGGAUCAUCAGCUUGACCUCUGUAAAGUGGCAUCUUAAAACUUUUACAGAUUUUUGCACAUGGAAUUCUCGGGUGCCAA | 1.11
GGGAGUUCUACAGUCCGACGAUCCCUGAGGGGCACUCAGCCAGCUCUGACCAGGACCCUGUGGCAGACAGAGAGGGCAGCCCGGUCUCCGGCAGCAGCCCCUUCCAGCUCACGGCUUUCUCCGAUGAAGACAUUGGAAUUCUCGGGUGCCAA | 0.375
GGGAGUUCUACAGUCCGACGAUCCAUUCAUAUACCAUUUUAUGAGUUCUGUAUAAUUUUUUGUGGUUUUUGUUUUGUUGAGUUAAAGUAUAUUAUUGUGAGAUUUAUUUAAUAGGACUUCCUUUGAAAGCUGUUGGAAUUCUCGGGUGCCAA | 1.2
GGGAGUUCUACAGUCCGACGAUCUCAGUCCAGUUUCCAUGACGUACCCCCUUCAGAAGUUUCUGACAUUGGUUUGAGGUUUUCUGACACUAAUUAAAAGAAAAAUUAGAUCAGGGUGUGGUAGCAAAUGCCUAUGGAAUUCUCGGGUGCCAA | 0.337
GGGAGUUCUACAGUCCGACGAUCCUAGUUCUAUCAAAUACCUUAUUUUACCUUUGCCAUACUUGCUGCACAAGCAGACACUGCUGGACUUAGAAGUUUCUAUUUGAGUUCCUUAAACUACAAAACUAAUAUGUUGGAAUUCUCGGGUGCCAA | 0.486
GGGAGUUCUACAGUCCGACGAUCACGCCUGGGGGUCCUAGAGGCUGCCCCACCCCAGUGAUUGGGUAGCAGCUCACAUCCCACCCAGCUUCACAAGUGAGGAACCCAGGUGCAUCGGGAGACCCUCGGGGGCUUGGAAUUCUCGGGUGCCAA | 0.531

Set 3 — technique: protein-binding microarray; molecule type: double-stranded DNA, one strand shown; matrix: in vitro; concentration: 940 nM top; notes: 60-bp whole probe; added: salmon DNA 0.4 mg/ml; reference: random background probes; reading: higher = stronger binding; shared flanks, not repeated: GCCTAGCAC … GTCTTGATTCGCTTGACGCTGCTG
Target: Interferon regulatory factor 5, full length, phosphomimetic (IRF5, Homo sapiens, UniProt Q13568-2, residues 1-514, S451D/S453D/S456D/S462D)
Oligonucleotide | fitted relative affinity [z-score]
TTAGGCTTCGGACTGGGTTAGTGCTAG | -0.451
TCCACTTGTCTTTTCATTTTGTGCTAG | 1.16
GACGGTTTCCGTCTCGGGACGTGCTAG | 1.91
TAAGGTCTCCTACTGCTTTAGTGCTAG | -0.0765
ACCATTTTGTTTTTCATTATGTGCTAG | 1.4
TCACCACTCATGCCTCTTACTGTGCTA | 1.15
TTAGGGATCGGGTTTCGGTTAGTGCTA | 6.08
GACGATTTCGAGACTGGAGACGTGCTA | 0.176
ATATATATGAATATATATTAGTGCTAG | 0.0572
GACGAATTGAGACTGGAGACGTGCTAG | -0.231
TTAGGTTGCCTACTGCTTTAGTGCTAG | -0.429
GACGGACTGGACACTGAGGACGTGCTA | -0.784
TCAAGTCTCAAAATTAGACTGTGCTAG | -0.0923
GACGGTTTCCTACTGCTTACGTGCTAG | 0.687
TCAACTCTCTAATTTTGACTGTGCTAG | 0.31
GACGGTTTCGGACTGGGGATGTGCTAG | 5.52
TTATGTTTCCTTCTCCTTTAGTGCTAG | 2.02
GACGGTAACGACACTGGGGACGTGCTA | -0.128

Set 4 — technique: universal PBM; molecule type: double-stranded DNA, one strand shown; matrix: in vitro; concentration: not given; reading: higher = stronger binding
Target: Sal-like protein 4, full length isoform B (SALL4, Homo sapiens, UniProt Q9UJQ4-2, residues 1-616)
Notes: 8-mer, flanks averaged, mean of replicates
Oligonucleotide | E-score
CCGAAGGA | -0.203
AGTGTGGC | -0.104
CGCCCGGC | -0.382
CACACTTC | -0.0124
CTCGTGTA | 0.07
ACCTGCCT | -0.0787
CCTCTCAG | -0.323
ATGAGGTC | -0.158
ATTCGAGC | -0.111
GGCCGCTA | -0.308
GCCACGGC | -0.399
TGAGTGAA | 0.0262
GGTAGATA | 0.189
CGACGTGC | -0.153
ACCCGAAA | -0.0495
GGACGTAC | -0.0557
CACGTAAC | -0.0943
GCAACACA | -0.0375

For quick reference, copied from above (set 3):
Oligonucleotide | fitted relative affinity [z-score]
TTAGGTTGCCTACTGCTTTAGTGCTAG | -0.429
ATATATATGAATATATATTAGTGCTAG | 0.0572
GACGGTTTCCGTCTCGGGACGTGCTAG | 1.91
TCACCACTCATGCCTCTTACTGTGCTA | 1.15
TCCACTTGTCTTTTCATTTTGTGCTAG | 1.16
GACGGACTGGACACTGAGGACGTGCTA | -0.784
TTAGGCTTCGGACTGGGTTAGTGCTAG | -0.451
